{"data": "Experimental data pooled from the literature", "note": "Parts stem from different laboratories: compare values within a part only. Positions count from the first letter of the parent shown.", "chain of UniProt O15294 (whole entry, looked up)": "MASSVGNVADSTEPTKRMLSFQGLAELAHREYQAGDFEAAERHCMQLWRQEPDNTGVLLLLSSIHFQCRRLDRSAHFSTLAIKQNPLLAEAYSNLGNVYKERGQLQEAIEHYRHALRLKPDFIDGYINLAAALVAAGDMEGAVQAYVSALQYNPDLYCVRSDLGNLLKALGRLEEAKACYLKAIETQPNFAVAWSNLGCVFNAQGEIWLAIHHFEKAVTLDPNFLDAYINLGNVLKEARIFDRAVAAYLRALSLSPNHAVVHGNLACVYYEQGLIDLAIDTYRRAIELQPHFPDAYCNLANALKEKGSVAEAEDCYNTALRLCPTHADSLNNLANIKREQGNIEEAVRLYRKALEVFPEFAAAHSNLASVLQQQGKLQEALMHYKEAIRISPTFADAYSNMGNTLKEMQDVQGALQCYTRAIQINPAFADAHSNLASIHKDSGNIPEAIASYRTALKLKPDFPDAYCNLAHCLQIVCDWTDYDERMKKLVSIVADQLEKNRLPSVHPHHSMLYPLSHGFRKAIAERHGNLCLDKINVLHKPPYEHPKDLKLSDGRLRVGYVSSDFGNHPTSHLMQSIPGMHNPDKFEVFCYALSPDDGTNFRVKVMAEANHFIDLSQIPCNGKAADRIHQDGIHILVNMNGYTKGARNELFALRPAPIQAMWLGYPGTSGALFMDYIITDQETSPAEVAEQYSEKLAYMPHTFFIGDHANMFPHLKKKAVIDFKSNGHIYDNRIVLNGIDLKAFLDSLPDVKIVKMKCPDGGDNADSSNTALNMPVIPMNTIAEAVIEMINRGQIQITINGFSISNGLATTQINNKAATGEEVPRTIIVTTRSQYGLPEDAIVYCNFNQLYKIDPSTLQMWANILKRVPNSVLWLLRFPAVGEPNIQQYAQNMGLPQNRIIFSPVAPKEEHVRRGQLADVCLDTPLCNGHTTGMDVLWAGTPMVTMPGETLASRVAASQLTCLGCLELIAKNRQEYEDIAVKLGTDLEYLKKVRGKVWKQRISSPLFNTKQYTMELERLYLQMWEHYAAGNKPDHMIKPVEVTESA"}
{"data": "Block 1", "target": "Centromere-binding protein 1, full length, His-tagged (CBF1, Saccharomyces cerevisiae, UniProt P17106, residues 1-351)", "method": "competition protein-binding microarray", "molecule type": "double-stranded DNA, one strand shown", "matrix": "in vitro", "tested at": "2 µM", "notes": "whole 60-bp probe, lowest competitor level", "added": "Pho4 competitor, 0.05 µM", "direction": "higher = stronger binding", "shared flanks, not repeated": "… GTCTTGATTCGCTTGACGCTGCTG", "chain of UniProt P17106 (whole entry, looked up)": "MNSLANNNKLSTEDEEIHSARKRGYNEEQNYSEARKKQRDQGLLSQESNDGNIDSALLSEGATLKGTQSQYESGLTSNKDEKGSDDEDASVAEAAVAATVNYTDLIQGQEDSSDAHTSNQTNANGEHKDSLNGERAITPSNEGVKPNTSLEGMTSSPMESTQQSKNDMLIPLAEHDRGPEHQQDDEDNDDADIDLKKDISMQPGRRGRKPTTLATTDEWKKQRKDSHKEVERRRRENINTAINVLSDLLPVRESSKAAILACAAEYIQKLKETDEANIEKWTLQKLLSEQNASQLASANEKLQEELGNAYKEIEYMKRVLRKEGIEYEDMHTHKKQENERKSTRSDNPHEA"}
{"Strand": "CGTACGGCAATAATCCTCGTGCAAAAATCTCTAAGA", "fluorescence intensity": "169 a.u."}
{"Strand": "CAACTTGATGGTCTACACGTTGTTTCAAGTGCATAC", "fluorescence intensity": "91.7 a.u."}
{"Strand": "CGTCCTAGTGATTGTCACCGGACTTCCATGAGGAAG", "fluorescence intensity": "79.6 a.u."}
{"Strand": "TTGGCCGATTAAGAACCCGTGAGAACCACCAGAGAA", "fluorescence intensity": "116 a.u."}
{"Strand": "TTGCTCAACGTTAAAGACGTGCTTTTTTGACTGACT", "fluorescence intensity": "66.6 a.u."}
{"Strand": "TAGAGGCAAAGTAGTCACCTGACTGCGCAAGCCCAT", "fluorescence intensity": "2230 a.u."}
{"Strand": "CCGCCGACACATATACACGTGTATATGTATGCCTAT", "fluorescence intensity": "1160 a.u."}
{"Strand": "GCGCGAAGTTTTGCTGACGTGCCAGTACCTGGGCCA", "fluorescence intensity": "61.3 a.u."}
{"data": "Block 2", "target": "CEBPA, bZIP domain (human)", "method": "DHFR protein complementation", "matrix": "yeast", "notes": "single substitutions, most at no-binding floor", "reference": "wild-type JUN-FOS pair", "direction": "higher = stronger binding", "parent": "JUN, bZIP domain (human); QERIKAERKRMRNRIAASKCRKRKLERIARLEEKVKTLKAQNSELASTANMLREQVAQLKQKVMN; partner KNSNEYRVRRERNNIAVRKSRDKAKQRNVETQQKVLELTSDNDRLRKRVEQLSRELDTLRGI"}
{"Substitution": "M51G", "binding fitness [natural log]": -1.51}
{"Substitution": "L38W", "binding fitness [natural log]": -1.49}
{"Substitution": "R30K", "binding fitness [natural log]": -1.49}
{"Substitution": "E54S", "binding fitness [natural log]": -1.46}
{"Substitution": "I28R", "binding fitness [natural log]": -1.39}
{"Substitution": "V56F", "binding fitness [natural log]": -1.54}
{"Substitution": "T37H", "binding fitness [natural log]": -1.16}
{"Substitution": "E54T", "binding fitness [natural log]": -1.41}
{"data": "Other studies, line by line"}
{"Molecule": "ENO1 (Homo sapiens, UniProt P06733)", "target or system": "ATP6V0A1 (Homo sapiens, UniProt Q93050)", "assay": "cross-linking MS", "test system": "cell fractions", "setting": "added: DSSO", "quantity": "cross-linked residues", "result": "K330 to K119"}
{"Molecule": "TGTKYVPMYQINPY", "target or system": "UDP-N-acetylglucosamine--peptide N-acetylglucosaminyltransferase 110 kDa subunit (OGT, Homo sapiens, UniProt O15294)", "assay": "binding, phage display NGS", "test system": "peptide", "scale": "reference: input library", "quantity": "minimum log2 enrichment ratio", "result": 3.4}
{"Molecule": "GPAT3 (Homo sapiens, UniProt Q53EU6)", "target or system": "CHP1 (Homo sapiens, UniProt Q99653)", "assay": "cross-linking MS", "test system": "cell fractions", "setting": "added: DSSO", "quantity": "cross-linked residues", "result": "K81 to K188"}
{"Molecule": "DDX50 (Homo sapiens, UniProt Q9BQ39)", "target or system": "TRIM5 (Homo sapiens, UniProt Q9C035)", "assay": "cross-linking MS", "test system": "cell fractions", "setting": "added: DMTMM", "quantity": "cross-linked residues", "result": "K213 to D293"}
{"Molecule": "NDUFB3 (Homo sapiens, UniProt O43676)", "target or system": "COX7A2 (Homo sapiens, UniProt P14406)", "assay": "cross-linking MS", "test system": "cell fractions", "setting": "added: DSSO", "quantity": "cross-linked residues", "result": "K39 to K33"}
{"note": "Excerpt of the above (block 2):"}
{"Substitution": "V56F", "binding fitness [natural log]": -1.54}
{"Substitution": "T37H", "binding fitness [natural log]": -1.16}
